Measurements gathered from unrelated publications.
Compare with care: the assays were run in different laboratories. ± marks the error that the study gave.

Structure (SMILES) | test | system | setting | terminal half-life
C#Cc1cccc(Nc2ncnc3cc(OCCOC)c(OCCOC)cc23)c1 | – | human, plasma | oral, day 29, added: dovitinib | 5 ± 3 h
Cc1cc(Nc2cc(N3CCN(C)CC3)nc(/C=C/c3ccccc3)n2)n[nH]1 | – | human patients, plasma | oral, dose not given, multiple doses | 44.9 to 53.1 h
COc1cccc(OCCCN)c1-c1cc(Nc2cnc(C#N)cn2)n[nH]1 | noncompartmental analysis | human, plasma | IV infusion, 80 mg/m^2 over 1 h, cycle 1 day 1, geometric mean | 16 h
O=c1c(-n2ccnn2)c[nH]n1-c1cc(N2CCOCC2)ncn1 | – | healthy male humans | oral, added: atazanavir | 6.9 h
CC[C@@H]1C(=O)N(C)c2cnc(Nc3ccc(C(=O)N[C@H]4CC[C@H](N5CCN(CC6CC6)CC5)CC4)cc3OC)nc2N1C(C)C | – | human | intravenous infusion, 2 h infusion | ~135 h
CCOc1c([C@H](C)n2nc(C)c3c(N)ncnc32)cc(Cl)c(F)c1[C@@H]1CNC(=O)C1 | – | healthy fasted humans, plasma | oral, 10 mg | 13.2 ± 3.1 h
CN1CCN(c2cccc3c2CCN(C(=O)/C=C/c2c(-n4cnnn4)ccc(Cl)c2F)[C@@H]3C(=O)Nc2ccc(C(=O)O)cc2)C(=O)C1 | – | human | intravenous infusion, 1 to 20 mg/h, 5 day infusion | 6.22 to 8.65 h
CC[C@H](C)[C@H](NC(=O)[C@H](CC(C)C)NC(=O)[C@H](Cc1c[nH]c2ccccc12)NC(=O)[C@H](C)NC(=O)[C@@H](NC(=O)[C@H](Cc1ccccc1)NC(=O)[C@H](CC(=O)O)NC(=O)[C@H](CCCNC(=N)N)NC(=O)[C@H](C)NC(=O)[C@H](C)NC(=O)[C@H](CC(C)C)NC(=O)[C@H](C)NC(=O)[C@H](CC(=O)O)NC(=O)[C@H](CC(C)C)NC(=O)[C@@H](NC(=O)[C@@H](NC(=O)[C@H](C)NC(=O)[C@H](CC(C)C)NC(=O)[C@H](CCC(=O)O)NC(=O)[C@H](CO)NC(=O)[C@H](CO)NC(=O)[C@H](Cc1ccccc1)NC(=O)[C@@H](NC(=O)CNC(=O)[C@H](CCC(=O)O)NC(=O)CNC(=O)[C@@H](N)Cc1cnc[nH]1)[C@@H](C)O)[C@@H](C)O)[C@@H](C)CC)[C@@H](C)CC)C(=O)N[C@@H](C)C(=O)N[C@H](C(=O)N[C@@H](CCCCN)C(=O)N[C@H](C(=O)N[C@H](C(=O)N[C@@H](CC(=O)O)C(=O)N[C@@H](CCCCN)C(=O)N[C@@H](CCCCN)C(=O)N[C@@H](CCCCN)C(=O)N[C@@H](CCCCN)C(=O)N[C@@H](CCCCN)C(=O)N[C@@H](CCCCN)C(N)=O)[C@@H](C)O)[C@@H](C)CC)[C@@H](C)O | – | healthy human subjects, plasma | subcutaneous, 10 mg once weekly, day 36 after 6 doses, steady state, mean | 2.8 h
CN[C@H]1CN(c2ccc3c(=O)c(C(=O)O)cn(-c4nccs4)c3n2)C[C@@H]1OC | – | human patients, plasma | intravenous, mean, about 10 min infusion | ~25 h
C=CC(=O)Nc1cc(Nc2ncc(C(=O)OC(C)C)c(-c3cn(C)c4ccccc34)n2)c(OC)cc1N(C)CCN(C)C | – | human, fasted | oral, 80 mg single dose, arithmetic mean | 14.8 h
C=C(C)[C@@H]1CC[C@]2(NCCN3CCS(=O)(=O)CC3)CC[C@]3(C)[C@H](CC[C@@H]4[C@@]5(C)CC=C(C6=CC[C@@](CF)(C(=O)O)CC6)C(C)(C)[C@@H]5CC[C@]43C)[C@@H]12 | – | human | oral, 50 mg once daily, day 14, multiple ascending dose | 24.8 h
O=C(Nc1nc2cccc(-c3ccc(CN4CCS(=O)(=O)CC4)cc3)n2n1)C1CC1 | – | human male | oral, 100 mg twice daily, steady state, mean | 5.87 h
O=C1Nc2ccc(Cl)cc2[C@@](C#CC2CC2)(C(F)(F)F)O1 | – | healthy human, serum | oral, 400 mg single dose | 106 ± 49.3 h
CC(C)C[C@H](NC(=O)CNC(=O)c1cc(Cl)ccc1Cl)B(O)O | – | human, plasma | intravenous, 0.5 mg/m^2, day 15 | 292 h

A few entries again:
Structure (SMILES) | test | system | setting | terminal half-life
CN1CCN(c2cccc3c2CCN(C(=O)/C=C/c2c(-n4cnnn4)ccc(Cl)c2F)[C@@H]3C(=O)Nc2ccc(C(=O)O)cc2)C(=O)C1 | – | human | intravenous infusion, 1 to 20 mg/h, 5 day infusion | 6.22 to 8.65 h
